Measurements pooled from the literature.
Each line is one published result; not all experiments were run side by side. Values joined by “and” are separate records of one study, mostly repeats; a detail may differ. ± gives the spread as reported.
RAD51: DNA repair protein RAD51 homolog 1 (RAD51, Homo sapiens, UniProt Q06609)
DNA dC->dU-editing enzyme APOBEC-3B C-terminal domain: DNA dC->dU-editing enzyme APOBEC-3B, C-terminal domain (Homo sapiens, UniProt Q9UH17)
IL1RL2: Interleukin-1 receptor-like 2 (IL1RL2, Homo sapiens, UniProt Q9HB29)
MAOB: Amine oxidase [flavin-containing] B (MAOB, Homo sapiens, UniProt P27338)
TDP1: Tyrosyl-DNA phosphodiesterase 1 (TDP1, Homo sapiens, UniProt Q9NUW8)

`CN(C)S(=O)(=O)c1ccc(S(=O)(=O)N2CCC(n3c(=O)[nH]c4ccccc43)CC2)cc1` gave a remaining activity of 13.1% and 25.8% and 4.25% and 31% (mfd, C-terminal domain (Escherichia coli, UniProt P30958); ATPase activity, BIOMOL Green; concentration not given).
With `COc1ccc(OC)c(Nc2nc(NCCO)c3ccccc3n2)c1` the remaining activity was 75.1 ± 4.8% (RAD51; D-loop formation, inhibitor; 10 x RAD52 pairing IC50, 4% DMSO, together with: 1 mM calcium chloride; reference: DMSO control).
`O=c1cnnc(Nc2ccc(O)cc2)[nH]1` gave a remaining activity of 22.8% (DNA dC->dU-editing enzyme APOBEC-3B C-terminal domain; deaminase activity, inhibitor; 500 µM).
With `CC(C)[C@@H]1NC(=O)[C@H](Cc2ccccc2)NC(=O)CSC[C@@H](C(N)=O)NC(=O)[C@H](CCC(=O)O)NC(=O)[C@H](CO)NC(=O)[C@H](Cc2c[nH]c3ccccc23)NC(=O)[C@H](C(C)C)NC(=O)[C@H](C(C)C)NC(=O)[C@H](Cc2ccc(O)cc2)NC(=O)[C@H](CC(=O)O)NC(=O)[C@H](Cc2c[nH]c3ccccc23)NC(=O)[C@H](Cc2ccc(O)cc2)NC(=O)[C@H](Cc2c[nH]c3ccccc23)NC(=O)[C@H](CCC(=O)O)NC1=O` the remaining activity was 96.8% (IL1R1 (Homo sapiens, UniProt P14778); IL-8 release, antagonist; A-431; 20 µM, 18 h, together with: IL-1β 5 ng/mL; reference: untreated).
With `CCN(CC)CCNC(=S)Nc1ccc2nc(N3CCN(CC)CC3)cc(C)c2c1` the remaining activity was 95.5 ± 4.3% (RAD51; D-loop formation, inhibitor; 10 x RAD52 pairing IC50, 4% DMSO, together with: 1 mM calcium chloride; reference: DMSO control).
The remaining activity of `CCC1Sc2ccc(S(=O)(=O)CCC(=O)Nc3cccc4ccccc34)cc2NC1=O` (stereo not shown) is reported as 75.4% (P2X purinoceptor 7 (P2rx7, Mus musculus, UniProt Q9Z1M0, A312V); ATP-evoked current, inhibitor, whole-cell patch clamp; HEK293 transfected; 0.3 µM).
The remaining activity of `C[C@](C(=O)NC1CCOCC1)(c1cncnc1)N(C(=O)[C@H](F)Cl)c1ccc(OC(F)(F)Cl)cc1` is reported as 102% (Caspase-6 (CASP6, Homo sapiens, UniProt P55212); enzyme activity, inhibitor; 10 µM).
The remaining activity of `Cc1cc(C(=O)Nc2nc3cccc(C)c3n2[C@H]2CCCCN(C(=O)/C=C/CN(C)C)C2)ccn1` is reported as 111% (CDC2-like kinase 1 (Trypanosoma brucei brucei, UniProt Q382U0); kinase activity, ADP-Glo; 0.01953 µM).
`Cc1ccc(C)c(-c2ccc3nc(NC(=O)C4CCCCC4)nn3c2)c1` has a remaining activity of 102% (EEF2K (Homo sapiens, UniProt O00418); enzyme activity, Dundee kinase panel; 10 µM).
With `N#Cc1cnc2sc(C(=O)O)cc2c1N1CCc2[nH]nc(C(=O)N[C@@H](CC(=O)NCCOCCN3CCOCC3)c3cccc(Br)c3)c2C1` the remaining activity was 94.7% (IL1RL2; reporter gene (SEAP), inhibitor, HEK-Blue IL-36R reporter; HEK-Blue IL-36R cells; 0.14 µM, 6 h, together with: IL36A 0.01 ng/mL).
`CC(C)c1ccc(/C=C/C(=O)c2ccc(S(C)(=O)=O)cc2)cc1` gave a remaining activity of 83.3% (MAOB; enzyme activity, inhibitor; 1 µM).
With `C=C1C[C@@]2(C(=O)OC)C=C(C(=O)Nc3cccc(C(=O)Nc4ccc(Nc5nccc(-c6cccnc6)n5)c(C)c4)c3)C(=O)[C@@H]1C2` the remaining activity was 0.0273 (MAPK8 (Homo sapiens, UniProt P45983); kinase activity, inhibitor; 44.44 µM, unit not given, together with: 10 mM glutathione; reference: no inhibitor).
For `O=C(O)c1ccc(Nc2c(-c3ccccc3)nc3ccc(CON=Cc4cc(Br)c5c(c4)CCO5)cn23)cc1`, the inhibition was 45.6% (TDP1; enzyme activity, inhibitor; 100 µM, unpurified compound).
With `Cc1ccc(C(=O)c2oc3ccc(Cl)cc3c2NC(=O)CN2CCN(C)CC2)cc1` the remaining activity was 92.5 ± 5% (RAD51; D-loop formation, inhibitor; 10 x RAD52 pairing IC50, 4% DMSO, together with: 1 mM calcium chloride; reference: DMSO control).
`CN1CCC[C@@H]1C(=O)N[C@@H](Cc1ccc(-c2ccccc2)cc1)B(O)O` has a remaining activity of 30 ± 2% (Proteasome component C5/PSMB5 (Homo sapiens, UniProt P20618+P28074); enzyme activity, inhibitor; 1 µM, PA28αβ-activated, Tris buffer, together with: Ac-WLA-AMC substrate).
`CCCCN(CC)CCNC(=O)c1cc2c(-c3ccc(Cl)cc3)nn(C)c2s1` has a remaining activity of 58.6 ± 2.9% (RAD51; D-loop formation, inhibitor; 10 x RAD52 pairing IC50, 4% DMSO, together with: 1 mM calcium chloride; reference: DMSO control).
The remaining activity of `Cc1cnc2nc1Nc1cccc(c1)COC/C=C/COCc1cc(ccc1OCCN1CCOCC1)N2` is reported as 93% (EGFR (Homo sapiens, UniProt P00533, L861Q); concentration not given; reference: untreated control).
`O=C(O)c1cc(-c2ccc(CN3CCCC(CO)C3)o2)ccc1Cl` (stereo not shown) has a remaining activity of 23.8% (DNA dC->dU-editing enzyme APOBEC-3B C-terminal domain; deaminase activity, inhibitor; 500 µM).
`COC(=O)[C@@]1(C)C=C(C(=O)Nc2cccc(C(=O)Nc3ccc(Nc4nccc(-c5cccnc5)n4)c(C)c3)c2)C(=O)CC1` gave a remaining activity of 0.443 (MAPK1 (Homo sapiens, UniProt P28482); kinase activity, inhibitor; 133.3 µM, unit not given; reference: no inhibitor).
With `OCC1CCCN(CCNc2cc(-c3ccccc3)nc3ccnn23)C1` (stereo not shown) the remaining activity was 12.2% (DNA dC->dU-editing enzyme APOBEC-3B C-terminal domain; deaminase activity, inhibitor; 500 µM).
The remaining activity of `CC(C)c1ccc(/C=C/C(=O)c2cccc(C(F)(F)F)c2)cc1` is reported as 65.1% (MAOB; enzyme activity, inhibitor; 1 µM).
With `O=C(c1cccc(-c2cc(NCCO)ncn2)c1)N1CCCC1c1ccccc1` (stereo not shown) the remaining activity was 7.1% (DNA dC->dU-editing enzyme APOBEC-3B C-terminal domain; deaminase activity, inhibitor; 500 µM).
`CC(C)c1ccc(/C=C/C(=O)c2ccc(F)cc2)cc1` gave a remaining activity of -4.1% (MAOB; enzyme activity, inhibitor; 1 µM).
`COc1ccc(-c2ccc(C(=O)N(C)CCO)cc2)c(OC)c1` gave a remaining activity of 27.5% (DNA dC->dU-editing enzyme APOBEC-3B C-terminal domain; deaminase activity, inhibitor; 500 µM).
The inhibition of `CN(Cc1ccccc1)c1ncc(C=NOCc2ccc(-c3nc4cc(-c5ccccc5)ccn4c3Nc3ccc(C(=O)O)cc3)cc2)s1` (mixture of isomers) is reported as 35.5% (TDP1; enzyme activity, inhibitor; 100 µM, unpurified compound).
`COc1ccc(OC)c(Nc2nc(NCCCO)c3ccccc3n2)c1` gave a remaining activity of 75.6 ± 7.1% (RAD51; D-loop formation, inhibitor; 10 x RAD52 pairing IC50, 4% DMSO, together with: 1 mM calcium chloride; reference: DMSO control).
For `CC(C)[C@@H]1NC(=O)[C@H](Cc2ccccc2)NC(=O)CSC[C@@H](C(N)=O)NC(=O)[C@H](CCC(=O)O)NC(=O)[C@H](CO)NC(=O)[C@H](Cc2c[nH]c3cccc(Cl)c23)NC(=O)[C@H](C2CCCCC2)NC(=O)[C@H](C(C)C)NC(=O)[C@H](Cc2ccc(O)cc2)NC(=O)[C@H](CC(=O)O)NC(=O)[C@H](Cc2c[nH]c3ccccc23)NC(=O)[C@H](Cc2ccc(N)nc2)NC(=O)[C@H](Cc2c[nH]c3ccc(Cl)cc23)NC(=O)[C@H](CCC(=O)O)NC1=O`, the remaining activity was 91.1% (IL1RL2; reporter gene (SEAP), inhibitor, HEK-Blue IL-36R reporter; HEK-Blue IL-36R cells; 0.005 µM, 6 h, together with: IL-36β 0.3 ng/mL).
`COc1ccccc1-c1ccncc1C(=O)Nc1nnc(OCc2ccc(Cl)cc2)s1` has a remaining activity of 72% (DNA polymerase theta, helicase domain (POLQ, Homo sapiens, UniProt O75417); ATPase activity, ADP-Glo; 0.008 µM, together with: ATP 100 µM).

Repeated from above:
With `CCN(CC)CCNC(=S)Nc1ccc2nc(N3CCN(CC)CC3)cc(C)c2c1` the remaining activity was 95.5 ± 4.3% (RAD51; D-loop formation, inhibitor; 10 x RAD52 pairing IC50, 4% DMSO, together with: 1 mM calcium chloride; reference: DMSO control).
The remaining activity of `CCC1Sc2ccc(S(=O)(=O)CCC(=O)Nc3cccc4ccccc34)cc2NC1=O` (stereo not shown) is reported as 75.4% (P2X purinoceptor 7 (P2rx7, Mus musculus, UniProt Q9Z1M0, A312V); ATP-evoked current, inhibitor, whole-cell patch clamp; HEK293 transfected; 0.3 µM).
`COc1ccccc1-c1ccncc1C(=O)Nc1nnc(OCc2ccc(Cl)cc2)s1` has a remaining activity of 72% (DNA polymerase theta, helicase domain (POLQ, Homo sapiens, UniProt O75417); ATPase activity, ADP-Glo; 0.008 µM, together with: ATP 100 µM).
